Measured values from different studies.
Numbered parts are unrelated; each lists some results of a single study. Positions count from the first letter of the parent shown.

Series 1
Target: UBE2D4 UBC core domain (UniProt Q9Y2X8)
Technique: yeast two-hybrid
Matrix: yeast
Setting: mostly zero background
Reference: not given
Reading: higher = stronger interaction
B1: CNOT4 RING domain (UniProt O95628); chain MSRSPDAKEDPVECPLCMEPLEIDDINFFPCTCGYQICRFCWHRIRTDENGLCPACRKPYPED
B2: MKRN3 RING domain (UniProt Q13064); chain FAVQRGMDKVCGICMEVVYEKANPNDRRFGILSNCNHSFCIRCIRRWRSARQFENRIVKSCPQCRVTSELVIPSE
Target sequence (chain): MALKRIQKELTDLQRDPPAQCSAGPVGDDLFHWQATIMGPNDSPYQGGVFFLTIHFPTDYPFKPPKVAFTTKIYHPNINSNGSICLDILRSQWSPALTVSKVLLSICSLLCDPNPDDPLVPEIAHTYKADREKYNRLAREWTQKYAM
Molecule | lacZ reporter activity
B1 (CNOT4 RING domain) | 14700
LEALSSDFLACKICLEQLRAPKTLPCLHTYCQDCLAQLADGGRVRCPECRETVPVPPEGV (TRIM56 RING domain (UniProt Q9BRZ2)) | 0
B2 (MKRN3 RING domain) | 0

Series 2
Target: CCND2, cyclin fold, Cln2 fusion (human)
Technique: yeast growth competition, sequencing
Matrix: yeast
Setting: strong parent motif
Reference: not given
Reading: higher = stronger binding
Starting sequence: viral docking peptide; YKVKRRLVFGADD; partner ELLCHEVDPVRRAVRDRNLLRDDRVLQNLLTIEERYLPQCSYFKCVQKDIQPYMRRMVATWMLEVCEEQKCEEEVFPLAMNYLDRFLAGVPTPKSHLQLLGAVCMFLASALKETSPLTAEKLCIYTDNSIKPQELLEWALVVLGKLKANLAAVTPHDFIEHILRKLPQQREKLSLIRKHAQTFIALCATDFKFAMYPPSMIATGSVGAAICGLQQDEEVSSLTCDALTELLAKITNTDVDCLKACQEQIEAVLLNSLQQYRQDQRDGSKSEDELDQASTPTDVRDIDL
Change | normalised enrichment score
K2Y | 0.538
F9N | 0.138
D12Y | 0.888

Series 3
Target: HLA class I histocompatibility antigen, A alpha chain, allele A*25:01 (Homo sapiens, UniProt P04439)
Read-out: peptide-MHC binding
Molecule type: peptide
Concentration: concentration not given
Molecule | binding
FEFILRYGD | inactive
LLIQGLKTV | inactive
CTWPEASRY | inactive

Series 4
Partner: H2AC6 (Homo sapiens, UniProt Q93077)
Technique: cross-linking MS
Setting: hits only
Molecule | interaction screen
H2BC17 (Homo sapiens, UniProt P23527) | cross-linked
H2BC11 (Homo sapiens, UniProt P06899) | cross-linked
H2AC20 (Homo sapiens, UniProt Q16777) | cross-linked

For quick reference, copied from above (series 3):
Molecule | binding
LLIQGLKTV | inactive
FEFILRYGD | inactive
